Published values from different studies.
Every numbered part comes from another study and shows a few of its results, in no order. Several values in a cell are separate wells, animals, samples, runs or records.
Sequence of UniProt P07948 (whole entry, looked up): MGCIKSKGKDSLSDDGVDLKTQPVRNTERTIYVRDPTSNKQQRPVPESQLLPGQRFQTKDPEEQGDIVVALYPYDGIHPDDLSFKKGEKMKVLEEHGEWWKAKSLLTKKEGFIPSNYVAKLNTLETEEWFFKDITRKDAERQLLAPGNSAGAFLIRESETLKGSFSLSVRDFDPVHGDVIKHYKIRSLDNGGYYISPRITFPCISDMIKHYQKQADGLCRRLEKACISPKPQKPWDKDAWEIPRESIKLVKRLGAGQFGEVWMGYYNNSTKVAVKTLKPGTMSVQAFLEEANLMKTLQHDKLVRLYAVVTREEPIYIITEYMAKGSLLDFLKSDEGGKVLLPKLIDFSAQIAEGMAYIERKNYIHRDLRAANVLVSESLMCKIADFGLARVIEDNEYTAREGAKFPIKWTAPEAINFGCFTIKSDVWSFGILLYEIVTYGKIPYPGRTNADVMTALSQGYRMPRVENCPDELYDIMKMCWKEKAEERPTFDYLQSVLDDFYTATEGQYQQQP
Sequence of UniProt Q86Y34 (whole entry, looked up): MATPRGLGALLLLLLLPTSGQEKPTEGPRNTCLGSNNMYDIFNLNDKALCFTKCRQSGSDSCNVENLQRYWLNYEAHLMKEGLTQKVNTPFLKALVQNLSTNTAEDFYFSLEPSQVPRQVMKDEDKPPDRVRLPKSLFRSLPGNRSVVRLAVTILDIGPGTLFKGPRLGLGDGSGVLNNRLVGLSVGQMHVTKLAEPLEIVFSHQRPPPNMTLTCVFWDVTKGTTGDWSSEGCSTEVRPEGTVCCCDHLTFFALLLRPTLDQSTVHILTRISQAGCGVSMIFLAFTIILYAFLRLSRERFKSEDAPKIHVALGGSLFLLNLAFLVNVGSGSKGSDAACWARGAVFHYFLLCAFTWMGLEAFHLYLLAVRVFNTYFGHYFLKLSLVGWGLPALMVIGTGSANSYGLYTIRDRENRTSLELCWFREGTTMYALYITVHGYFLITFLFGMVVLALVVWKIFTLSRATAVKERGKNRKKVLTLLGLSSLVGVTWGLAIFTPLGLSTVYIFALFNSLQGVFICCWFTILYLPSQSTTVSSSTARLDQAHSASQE
Sequence of UniProt P13945 (whole entry, looked up): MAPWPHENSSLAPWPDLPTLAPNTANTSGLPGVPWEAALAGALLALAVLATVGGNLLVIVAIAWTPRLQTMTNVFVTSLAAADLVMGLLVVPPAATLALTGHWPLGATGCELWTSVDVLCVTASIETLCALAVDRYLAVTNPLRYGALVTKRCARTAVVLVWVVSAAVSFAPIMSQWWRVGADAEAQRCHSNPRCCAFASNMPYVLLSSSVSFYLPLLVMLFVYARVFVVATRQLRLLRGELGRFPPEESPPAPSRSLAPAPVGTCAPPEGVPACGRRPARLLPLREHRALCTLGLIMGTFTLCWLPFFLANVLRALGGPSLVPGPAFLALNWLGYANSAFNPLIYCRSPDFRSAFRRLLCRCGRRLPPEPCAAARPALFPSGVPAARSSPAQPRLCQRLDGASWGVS
Sequence of UniProt Q59H18 (whole entry, looked up): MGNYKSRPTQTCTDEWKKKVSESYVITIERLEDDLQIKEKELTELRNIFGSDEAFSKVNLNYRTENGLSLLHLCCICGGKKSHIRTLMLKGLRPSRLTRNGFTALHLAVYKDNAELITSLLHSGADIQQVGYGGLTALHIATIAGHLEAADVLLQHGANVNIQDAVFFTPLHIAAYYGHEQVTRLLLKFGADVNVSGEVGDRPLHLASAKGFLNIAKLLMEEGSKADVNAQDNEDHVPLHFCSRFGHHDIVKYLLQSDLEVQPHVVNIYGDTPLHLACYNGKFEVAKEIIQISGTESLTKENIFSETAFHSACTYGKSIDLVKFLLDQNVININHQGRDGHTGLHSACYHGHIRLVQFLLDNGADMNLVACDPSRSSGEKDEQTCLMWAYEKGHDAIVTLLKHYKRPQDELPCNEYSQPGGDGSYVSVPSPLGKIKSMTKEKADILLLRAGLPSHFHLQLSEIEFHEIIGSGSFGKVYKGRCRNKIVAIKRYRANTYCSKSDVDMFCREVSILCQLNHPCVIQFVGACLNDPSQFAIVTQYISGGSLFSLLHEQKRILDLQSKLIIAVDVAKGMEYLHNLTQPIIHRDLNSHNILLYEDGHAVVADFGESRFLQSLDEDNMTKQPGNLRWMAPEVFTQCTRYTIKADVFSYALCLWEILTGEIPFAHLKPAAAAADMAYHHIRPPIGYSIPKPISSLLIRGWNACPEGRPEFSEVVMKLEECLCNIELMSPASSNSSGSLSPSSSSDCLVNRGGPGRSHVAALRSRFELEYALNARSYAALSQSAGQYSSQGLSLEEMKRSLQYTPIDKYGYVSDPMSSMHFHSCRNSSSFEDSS
Sequence of UniProt P07949 (whole entry, unmodified, looked up): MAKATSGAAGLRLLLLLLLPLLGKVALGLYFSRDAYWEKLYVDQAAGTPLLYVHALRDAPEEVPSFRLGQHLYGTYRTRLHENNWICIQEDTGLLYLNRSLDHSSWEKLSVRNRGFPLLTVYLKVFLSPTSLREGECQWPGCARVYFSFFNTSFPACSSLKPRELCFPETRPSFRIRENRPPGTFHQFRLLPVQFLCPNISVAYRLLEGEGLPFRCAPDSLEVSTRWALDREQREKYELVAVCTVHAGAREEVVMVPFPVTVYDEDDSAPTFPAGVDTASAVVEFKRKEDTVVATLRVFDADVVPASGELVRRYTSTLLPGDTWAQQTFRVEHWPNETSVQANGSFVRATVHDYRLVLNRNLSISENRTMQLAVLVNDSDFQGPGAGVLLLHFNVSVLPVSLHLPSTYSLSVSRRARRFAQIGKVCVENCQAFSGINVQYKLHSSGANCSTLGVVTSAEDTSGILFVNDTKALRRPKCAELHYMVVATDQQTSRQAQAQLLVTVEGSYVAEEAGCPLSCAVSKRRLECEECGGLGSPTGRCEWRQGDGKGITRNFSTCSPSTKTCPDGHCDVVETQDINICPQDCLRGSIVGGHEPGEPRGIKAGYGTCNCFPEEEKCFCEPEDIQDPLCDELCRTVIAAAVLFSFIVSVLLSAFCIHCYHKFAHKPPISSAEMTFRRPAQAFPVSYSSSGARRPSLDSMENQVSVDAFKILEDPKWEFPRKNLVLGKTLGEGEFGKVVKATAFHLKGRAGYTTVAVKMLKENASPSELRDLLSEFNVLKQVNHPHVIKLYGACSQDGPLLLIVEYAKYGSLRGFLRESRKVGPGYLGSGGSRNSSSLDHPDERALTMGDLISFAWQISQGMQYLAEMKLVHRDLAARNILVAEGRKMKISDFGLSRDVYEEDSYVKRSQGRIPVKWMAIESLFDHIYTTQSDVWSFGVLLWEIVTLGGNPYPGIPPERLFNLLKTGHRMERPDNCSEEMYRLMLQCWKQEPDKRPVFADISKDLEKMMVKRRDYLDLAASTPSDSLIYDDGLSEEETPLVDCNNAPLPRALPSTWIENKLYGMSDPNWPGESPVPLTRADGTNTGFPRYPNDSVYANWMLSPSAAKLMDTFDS
Sequence of UniProt Q96Q40 (whole entry, looked up): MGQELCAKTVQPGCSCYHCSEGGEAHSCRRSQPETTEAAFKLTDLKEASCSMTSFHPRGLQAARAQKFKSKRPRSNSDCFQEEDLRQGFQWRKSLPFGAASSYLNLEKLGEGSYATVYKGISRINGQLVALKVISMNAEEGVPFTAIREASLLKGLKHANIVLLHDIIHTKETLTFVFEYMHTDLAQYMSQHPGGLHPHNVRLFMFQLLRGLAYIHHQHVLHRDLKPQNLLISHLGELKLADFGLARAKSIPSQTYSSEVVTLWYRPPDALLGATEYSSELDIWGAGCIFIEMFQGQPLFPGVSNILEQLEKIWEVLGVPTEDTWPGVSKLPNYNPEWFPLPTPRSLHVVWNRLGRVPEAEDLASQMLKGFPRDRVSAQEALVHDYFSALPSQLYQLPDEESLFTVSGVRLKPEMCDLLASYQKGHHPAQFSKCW
Sequence of UniProt Q8NFJ6 (whole entry, looked up): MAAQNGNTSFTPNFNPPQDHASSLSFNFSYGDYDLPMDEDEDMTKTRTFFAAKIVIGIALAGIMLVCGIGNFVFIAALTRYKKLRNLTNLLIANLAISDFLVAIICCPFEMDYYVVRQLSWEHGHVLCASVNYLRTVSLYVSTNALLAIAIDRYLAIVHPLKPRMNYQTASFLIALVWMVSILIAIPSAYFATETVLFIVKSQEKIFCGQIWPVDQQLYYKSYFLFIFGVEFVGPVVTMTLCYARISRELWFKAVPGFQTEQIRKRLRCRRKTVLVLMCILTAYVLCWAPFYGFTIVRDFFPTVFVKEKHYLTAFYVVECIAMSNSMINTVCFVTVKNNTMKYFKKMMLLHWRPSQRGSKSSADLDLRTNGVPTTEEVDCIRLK
Sequence of UniProt P21462 (whole entry, looked up): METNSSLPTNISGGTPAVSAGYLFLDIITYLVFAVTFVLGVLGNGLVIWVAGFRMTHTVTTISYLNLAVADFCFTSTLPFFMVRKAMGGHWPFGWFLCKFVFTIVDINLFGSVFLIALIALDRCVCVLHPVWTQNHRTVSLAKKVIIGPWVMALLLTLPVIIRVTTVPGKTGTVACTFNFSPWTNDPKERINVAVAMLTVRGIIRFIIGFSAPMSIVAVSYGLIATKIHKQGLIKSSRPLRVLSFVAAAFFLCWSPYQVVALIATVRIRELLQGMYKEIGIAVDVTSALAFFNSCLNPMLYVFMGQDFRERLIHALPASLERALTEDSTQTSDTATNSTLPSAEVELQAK
Sequence of UniProt P11802 (whole entry, looked up): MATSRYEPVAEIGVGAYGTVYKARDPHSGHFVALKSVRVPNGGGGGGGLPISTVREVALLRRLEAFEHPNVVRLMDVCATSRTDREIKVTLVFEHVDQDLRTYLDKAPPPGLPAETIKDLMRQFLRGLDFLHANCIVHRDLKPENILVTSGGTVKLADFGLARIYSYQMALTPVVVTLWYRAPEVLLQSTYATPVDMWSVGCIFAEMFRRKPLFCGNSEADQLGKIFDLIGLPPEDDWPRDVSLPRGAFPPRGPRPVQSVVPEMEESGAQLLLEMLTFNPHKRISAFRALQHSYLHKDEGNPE

Study 1
Structure (SMILES): CC(C)(C(=O)O)[C@H](NC(=O)Cc1cccc(I)c1)c1ccc2oc(=O)[nH]c2c1
Technique: Incucyte 3D growth
Tested at: 30 µM
Reading: higher = more growth
Endpoint: spheroid area
MEL-JUSO; 174.52 h: 1.69e+07 a.u. and 1.93e+07 a.u. and 1.7e+07 a.u. and 1.71e+07 a.u. and 1.95e+07 a.u. and 1.54e+07 a.u.
A375; 282.52 h: 1.73e+08 a.u. and 1.84e+08 a.u. and 1.75e+08 a.u. and 2e+08 a.u. and 1.77e+08 a.u. and 2.02e+08 a.u.
IPC-298; 288 h: 4.21e+07 a.u. and 3.7e+07 a.u. and 2.78e+07 a.u. and 3.4e+07 a.u. and 4.24e+07 a.u. and 2.74e+07 a.u.
IPC-298; 222 h: 3.14e+07 a.u. and 2.93e+07 a.u. and 2.72e+07 a.u. and 4.16e+07 a.u. and 2.45e+07 a.u. and 2.48e+07 a.u.
KP-4; 36 h: 1.35e+07 a.u. and 1.46e+07 a.u. and 1.36e+07 a.u. and 1.1e+07 a.u. and 1.3e+07 a.u. and 1.23e+07 a.u.
A375; 258.52 h: 1.98e+08 a.u. and 1.67e+08 a.u. and 1.93e+08 a.u. and 1.74e+08 a.u. and 1.84e+08 a.u. and 1.73e+08 a.u.
NCI-H358; 246 h: 9.35e+06 a.u. and 8.98e+06 a.u. and 7.12e+06 a.u. and 9.99e+06 a.u. and 1.1e+07 a.u. and 9.83e+06 a.u.
A375; 510.52 h: 1.52e+08 a.u. and 1.38e+08 a.u. and 1.75e+08 a.u. and 1.45e+08 a.u. and 1.44e+08 a.u.
NCI-H358; 144 h: 7.71e+06 a.u. and 7.8e+06 a.u. and 5.93e+06 a.u. and 5.44e+06 a.u. and 5.08e+06 a.u. and 5.18e+06 a.u.

Study 2
Structure (SMILES): NC(N)=NC(=O)c1nc(Cl)c(N2CCCCCC2)nc1N
Read-out: β-arrestin recruitment
Action: agonist
Technique: PRESTO-Tango
Tested at: 10 µM
Relative to: untreated
Endpoint: fold over basal
Nociceptin receptor (OPRL1, Homo sapiens, UniProt P41146): 0.48
Beta-3 adrenergic receptor (ADRB3, Homo sapiens, UniProt P13945): 0.77
Probable G-protein coupled receptor 21 (GPR21, Homo sapiens, UniProt Q99679): 1.08
C5a anaphylatoxin chemotactic receptor 1 (C5AR1, Homo sapiens, UniProt P21730): 0.61
fMet-Leu-Phe receptor (FPR1, Homo sapiens, UniProt P21462): 0.57 fold
Prokineticin receptor 2 (PROKR2, Homo sapiens, UniProt Q8NFJ6): 0.78
ADGRG3 (Homo sapiens, UniProt Q86Y34): 0.91
Mas-related G-protein coupled receptor member E (MRGPRE, Homo sapiens, UniProt Q86SM8): 0.95

Study 3
Compound: FC(F)(F)c1ccc2c(c1)nc(-c1cccnc1)n2C1CC1
Read-out: cell-free assay
Technique: competition with immobilised ligand
Tested at: 1 µM
Endpoint: remaining binding
Insulin receptor-related protein (INSRR, Homo sapiens, UniProt P14616): 100%
Interferon-induced, double-stranded RNA-activated protein kinase (EIF2AK2, Homo sapiens, UniProt P19525): 89%
Proto-oncogene tyrosine-protein kinase receptor Ret (RET, Homo sapiens, UniProt P07949, M918T): 91%
Tyrosine-protein kinase ABL1, phosphorylated (ABL1, Homo sapiens, UniProt P00519, Y253F): 100%
Calcium/calmodulin-dependent protein kinase type II subunit delta (CAMK2D, Homo sapiens, UniProt Q13557): 100%
Vascular endothelial growth factor receptor 1 (FLT1, Homo sapiens, UniProt P17948): 100%
Serine/threonine-protein kinase TNNI3K (TNNI3K, Homo sapiens, UniProt Q59H18): 100%
Ephrin type-A receptor 1 (EPHA1, Homo sapiens, UniProt P21709): 100%
Cyclin-dependent kinase 15 (CDK15, Homo sapiens, UniProt Q96Q40): 100%
Tyrosine-protein kinase Tec (TEC, Homo sapiens, UniProt P42680): 100%
Leukocyte tyrosine kinase receptor (LTK, Homo sapiens, UniProt P29376): 100%
Serine/threonine-protein kinase N2 (PKN2, Homo sapiens, UniProt Q16513): 100%
Cyclin-dependent kinase 4, with cyclin D3 (CDK4, Homo sapiens, UniProt P11802): 100%
Epidermal growth factor receptor (EGFR, Homo sapiens, UniProt P00533, A750P/del747-749): 87%
Receptor-interacting serine/threonine-protein kinase 4 (RIPK4, Homo sapiens, UniProt P57078): 95%
Receptor tyrosine-protein kinase erbB-4 (ERBB4, Homo sapiens, UniProt Q15303): 100%
Phosphatidylinositol 5-phosphate 4-kinase type-2 beta (PIP4K2B, Homo sapiens, UniProt P78356): 82%
Aurora kinase B (AURKB, Homo sapiens, UniProt Q96GD4): 100%
Calcium/calmodulin-dependent protein kinase kinase 2 (CAMKK2, Homo sapiens, UniProt Q96RR4): 100%
Serine/threonine-protein kinase 38-like (STK38L, Homo sapiens, UniProt Q9Y2H1): 100%
Activin receptor type-2A (ACVR2A, Homo sapiens, UniProt P27037): 100%
Death-associated protein kinase 3 (DAPK3, Homo sapiens, UniProt O43293): 100%
MAP kinase-activated protein kinase 2 (MAPKAPK2, Homo sapiens, UniProt P49137): 100%
Tyrosine-protein kinase Lyn (LYN, Homo sapiens, UniProt P07948): 82%
Receptor-type tyrosine-protein kinase FLT3 (FLT3, Homo sapiens, UniProt P36888, D835V): 92%

Study 4
Target: Diamine acetyltransferase 1 (Homo sapiens, UniProt P21673)
Action: inhibitor
Tested at: 10 µM
Relative to: control
Endpoint: remaining activity
Construct (P21673 1-171): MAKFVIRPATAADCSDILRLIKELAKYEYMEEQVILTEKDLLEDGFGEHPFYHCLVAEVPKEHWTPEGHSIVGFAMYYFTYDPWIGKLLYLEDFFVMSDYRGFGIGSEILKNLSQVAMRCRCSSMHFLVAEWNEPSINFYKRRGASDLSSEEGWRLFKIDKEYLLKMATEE
CC1(C)CC[C@]2(C(=O)O)CC[C@]3(C)C(=CC[C@@H]4[C@@]5(C)CC[C@@H](O)C(C)(C)[C@@H]5CC[C@]43C)[C@@H]2C1: 87%
C=C(CC[C@@H](C(=O)O)[C@H]1[C@H](O)C[C@@]2(C)C3=CC[C@H]4C(C)(C)C(=O)CC[C@]4(C)C3=CC[C@]12C)C(C)C: 103%
CCCCCCCCCCCO: 91.7%
COc1cc2c(=O)c(-c3ccc(O)cc3)coc2cc1O[C@@H]1O[C@H](CO)[C@@H](O)[C@H](O)[C@H]1O: 93.8%
C[C@H](CC(=O)C[C@@H](C)[C@H]1C[C@H](O)[C@@]2(C)C3=C(C(=O)C[C@]12C)[C@@]1(C)CC[C@H](O)C(C)(C)[C@@H]1C[C@@H]3O)C(=O)O: 106%
COC(=O)c1cc(O)c(O)c(O)c1: 105%
COc1ccc(-c2cc(=O)c3c(O)cc(O)cc3o2)cc1O: 95.8%
C[C@H](C[C@H](O)[C@H]1OC1(C)C)C1=C2C[C@H](O)[C@H]3[C@@]4(C)CCC(=O)C(C)(C)[C@@H]4CC[C@]3(C)[C@@]2(C)CC1: 87%
C=C(CC[C@@H](C(=O)O)[C@H]1[C@H](O)C[C@@]2(C)C3=C(CC[C@]12C)[C@@]1(C)CC[C@H](OC(C)=O)C(C)(C)[C@@H]1CC3)C(C)C: 99.8%
O=Cc1ccc(O)c(O)c1: 94.9%
COC(=O)[C@]1(O)C[C@@H](O)[C@@H](O)[C@H](OC(=O)C=Cc2ccc(O)c(O)c2)C1: 86.7%

Single results of other studies
COc1cc2c(N3CCN(C(=O)Nc4ccc(OC(C)C)cc4)CC3)ncnc2cc1OCCCN1CCCCC1
viability (A-375; 100 µM, 60 h): 5.17%

For quick reference, copied from above (study 3):
Serine/threonine-protein kinase N2 (PKN2, Homo sapiens, UniProt Q16513): 100%
Cyclin-dependent kinase 4, with cyclin D3 (CDK4, Homo sapiens, UniProt P11802): 100%
Epidermal growth factor receptor (EGFR, Homo sapiens, UniProt P00533, A750P/del747-749): 87%
Receptor-interacting serine/threonine-protein kinase 4 (RIPK4, Homo sapiens, UniProt P57078): 95%
Receptor tyrosine-protein kinase erbB-4 (ERBB4, Homo sapiens, UniProt Q15303): 100%
